Published values gathered from unrelated publications.
Compare with care: the assays were run in different laboratories. Numbers after ± are the reported error.
Matrix protein 2 S31N: Matrix protein 2 (Influenza A virus, UniProt P0DOF5, S31N)

For `CC(C)(C)[C@H](NC(=O)NC1(CS(=O)(=O)C(C)(C)C)CCCCC1)C(=O)N1C[C@H]2[C@@H]([C@H]1C(=O)N[C@H](C#N)C[C@@H]1CCNC1=O)C2(C)C`, the ΔS was 20.9 cal/mol/K (Replicase polyprotein 1ab, main protease H41A (rep, Severe acute respiratory syndrome coronavirus 2, UniProt P0DTD1, H3304A); pH 7.2).
For `C=Cc1c(C)c2cc3nc(cc4[nH]c(cc5nc(cc1[nH]2)C(C)=C5CCC(=O)O)c(CCC(=O)OC)c4C)C1(C)C3=CC=C(C(=O)OC)C1C(=O)OC` (centres unmarked), the ΔTm was -1.05 °C (Spike glycoprotein, S2 subunit (Severe acute respiratory syndrome coronavirus 2, UniProt P0DTC2); S2 subunit).
For `Brc1ncc(CNC23CC4CC(CC(C4)C2)C3)s1`, the inhibition was 47% (Matrix protein 2 S31N; proton channel activity, inhibitor; Influenzavirus A, S31N mutant; 100 µM).
The inhibition of `O=c1cc(-c2ccc(O)cc2)oc2c([C@@H]3OC[C@H](O)[C@H](O)[C@H]3O)c(O)c([C@@H]3O[C@H](CO)[C@@H](O)[C@H](O)[C@H]3O)c(O)c12` is reported as 32% (Replicase polyprotein 1ab, main protease G143A (rep, Severe acute respiratory syndrome coronavirus 2, UniProt P0DTD1, G3406A); 3CL protease activity, inhibitor; concentration not given, 3CLpro G143A mutant).
`CC(C)(C)c1ncc(CNC23CC4CC(CC(C4)C2)C3)s1` gave an inhibition of 38% (Matrix protein 2 S31N; proton channel activity, inhibitor; Influenzavirus A, S31N mutant; 100 µM).
With `O=C(NC1CCN(c2ncnc3[nH]cnc23)CC1)c1cccc(NS(=O)(=O)c2ccc(C(F)(F)F)cc2)c1` the ΔTm was 2.5 °C (Replicase polyprotein 1ab, nsp14 (rep, Severe acute respiratory syndrome coronavirus 2, UniProt P0DTD1); thermal shift; 15.63 µM).
`O=C[C@H](C[C@@H]1CCNC1=O)NC(=O)[C@H](CC1CCCCC1)NC(=O)c1cc2ccccc2[nH]1`: “thermal shift (ΔTm)” 17.8 °C (Replicase polyprotein 1a, main protease (Severe acute respiratory syndrome coronavirus 2, UniProt P0DTC1, P3395H); binding; SARS-CoV-2; concentration not given).
`c1nc(N2CCCCCC2)ncc1CNC12CC3CC(CC(C3)C1)C2` has an inhibition of 83.8 ± 2.8% (Matrix protein 2 S31N; channel activity, inhibitor; 100 µM).
`Cc1cc(CNC23CC4CC(CC(C4)C2)C3)no1` has an inhibition of 49% (Matrix protein 2 S31N; proton channel activity, inhibitor; Influenzavirus A, S31N mutant; 100 µM).
For `CC(C)C(=O)OC[C@H]1O[C@@](C#N)(n2ccc(N)nc2=O)[C@H](O)[C@@H]1O`, the EC50 was 1200 ± 400 nM (SARS-CoV-2 Omicron; viral replication; Calu-3).
`c1nc(N2CCCCC2)ncc1CNC12CC3CC(CC(C3)C1)C2` gave an inhibition of 12 ± 0.8% (Matrix protein 2 (Influenza A virus, UniProt P0DOF5); channel activity, inhibitor; 100 µM).
`c1nc(CNC23CC4CC(CC(C4)C2)C3)no1` gave an inhibition of 52% (Matrix protein 2 S31N; channel activity, inhibitor; 100 µM, S31N mutant).
For `COc1ccc(CNc2ccc(C34CC5CC(CC(C5)C3)C4)cc2)c(O)c1`, the kon was < 64 M⁻¹ s⁻¹ (Matrix protein 2 S31N; binding).
With `OC12CC3CC(C1)CC(NCc1cnc(N4CCCCC4)nc1)(C3)C2` the inhibition was 67.2 ± 1.5% (Matrix protein 2 S31N; channel activity, inhibitor; 100 µM).
